{"data": "Assay results gathered from unrelated publications", "CBF1": "CBF1 1-351 (Saccharomyces cerevisiae, UniProt P17106)", "U2AF2": "U2AF2 148-342 (Homo sapiens, UniProt P26368)", "SPT15 full length assumed": "SPT15 full length assumed (Saccharomyces cerevisiae, UniProt P13393)", "PHO4": "PHO4 1-312 (Saccharomyces cerevisiae, UniProt P07270)", "ulaR full length assumed": "ulaR full length assumed (Escherichia coli, UniProt P0A9W0)", "CIN5 full length assumed": "CIN5 full length assumed (Saccharomyces cerevisiae, UniProt P40917)", "SUA7 full length assumed": "SUA7 full length assumed (Saccharomyces cerevisiae, UniProt P29055)", "T1": "TOA1/TOA2 1-286; 1-122 (Saccharomyces cerevisiae); chain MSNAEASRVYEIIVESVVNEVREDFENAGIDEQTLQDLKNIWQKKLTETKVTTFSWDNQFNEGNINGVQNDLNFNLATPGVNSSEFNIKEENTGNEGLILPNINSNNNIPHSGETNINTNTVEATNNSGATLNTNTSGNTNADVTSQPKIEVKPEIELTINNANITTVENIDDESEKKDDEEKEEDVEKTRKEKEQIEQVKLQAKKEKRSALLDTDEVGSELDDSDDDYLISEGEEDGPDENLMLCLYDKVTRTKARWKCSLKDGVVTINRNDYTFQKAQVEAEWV; chain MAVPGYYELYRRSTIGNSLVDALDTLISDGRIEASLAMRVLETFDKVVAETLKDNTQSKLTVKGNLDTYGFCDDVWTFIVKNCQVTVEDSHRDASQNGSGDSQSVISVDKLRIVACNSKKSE", "note": "Lines come from different studies, so protocols differ. ± gives the spread as reported.", "sequence of UniProt P26368 (whole entry, looked up)": "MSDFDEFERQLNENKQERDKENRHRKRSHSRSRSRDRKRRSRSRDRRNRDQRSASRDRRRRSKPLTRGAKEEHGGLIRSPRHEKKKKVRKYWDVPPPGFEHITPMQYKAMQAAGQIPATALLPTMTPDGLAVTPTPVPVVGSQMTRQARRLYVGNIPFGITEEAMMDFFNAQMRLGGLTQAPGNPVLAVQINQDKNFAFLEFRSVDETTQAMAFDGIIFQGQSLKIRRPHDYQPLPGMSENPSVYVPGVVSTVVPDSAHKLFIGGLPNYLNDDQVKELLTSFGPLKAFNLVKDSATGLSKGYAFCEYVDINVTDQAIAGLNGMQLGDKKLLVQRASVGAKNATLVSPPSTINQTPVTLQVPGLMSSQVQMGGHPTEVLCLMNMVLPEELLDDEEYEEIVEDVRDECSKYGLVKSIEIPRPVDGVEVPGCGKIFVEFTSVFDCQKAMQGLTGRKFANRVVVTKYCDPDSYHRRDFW", "sequence of UniProt P29055 (whole entry, looked up)": "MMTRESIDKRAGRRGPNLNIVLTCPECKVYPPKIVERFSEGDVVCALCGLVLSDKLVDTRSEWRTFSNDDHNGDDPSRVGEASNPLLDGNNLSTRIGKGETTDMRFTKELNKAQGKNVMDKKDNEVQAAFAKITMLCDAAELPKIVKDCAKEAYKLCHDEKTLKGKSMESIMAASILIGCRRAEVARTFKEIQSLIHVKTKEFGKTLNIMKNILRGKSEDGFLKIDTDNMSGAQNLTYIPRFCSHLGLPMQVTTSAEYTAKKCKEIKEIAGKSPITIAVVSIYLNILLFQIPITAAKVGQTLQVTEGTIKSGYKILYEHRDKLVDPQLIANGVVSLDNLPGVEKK", "sequence of UniProt P07270 (whole entry, looked up)": "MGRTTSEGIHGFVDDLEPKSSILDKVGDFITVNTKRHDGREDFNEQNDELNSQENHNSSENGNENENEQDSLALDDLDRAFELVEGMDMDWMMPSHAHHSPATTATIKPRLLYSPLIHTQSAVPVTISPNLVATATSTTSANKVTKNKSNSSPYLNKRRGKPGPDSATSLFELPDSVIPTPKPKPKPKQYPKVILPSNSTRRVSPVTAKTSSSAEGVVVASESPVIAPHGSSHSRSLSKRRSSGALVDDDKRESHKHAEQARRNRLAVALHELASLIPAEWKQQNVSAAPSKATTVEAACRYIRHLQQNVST", "sequence of UniProt P13393 (whole entry, looked up)": "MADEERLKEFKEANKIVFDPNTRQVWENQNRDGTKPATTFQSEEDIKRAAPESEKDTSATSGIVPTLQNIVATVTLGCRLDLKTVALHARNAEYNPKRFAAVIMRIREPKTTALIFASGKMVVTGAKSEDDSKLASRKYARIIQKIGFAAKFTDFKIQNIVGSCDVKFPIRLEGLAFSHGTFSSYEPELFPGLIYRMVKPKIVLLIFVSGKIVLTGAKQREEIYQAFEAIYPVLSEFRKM", "sequence of UniProt P17106 (whole entry, looked up)": "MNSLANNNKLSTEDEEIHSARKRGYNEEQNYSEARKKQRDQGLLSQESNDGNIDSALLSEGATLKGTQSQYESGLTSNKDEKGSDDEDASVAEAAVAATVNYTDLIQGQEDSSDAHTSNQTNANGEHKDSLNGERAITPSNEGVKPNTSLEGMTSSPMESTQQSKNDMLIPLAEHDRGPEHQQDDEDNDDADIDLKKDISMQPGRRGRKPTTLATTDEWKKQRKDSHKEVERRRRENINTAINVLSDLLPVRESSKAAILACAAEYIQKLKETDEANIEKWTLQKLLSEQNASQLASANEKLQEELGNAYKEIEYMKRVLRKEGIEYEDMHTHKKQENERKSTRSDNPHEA", "sequence of UniProt P40917 (whole entry, looked up)": "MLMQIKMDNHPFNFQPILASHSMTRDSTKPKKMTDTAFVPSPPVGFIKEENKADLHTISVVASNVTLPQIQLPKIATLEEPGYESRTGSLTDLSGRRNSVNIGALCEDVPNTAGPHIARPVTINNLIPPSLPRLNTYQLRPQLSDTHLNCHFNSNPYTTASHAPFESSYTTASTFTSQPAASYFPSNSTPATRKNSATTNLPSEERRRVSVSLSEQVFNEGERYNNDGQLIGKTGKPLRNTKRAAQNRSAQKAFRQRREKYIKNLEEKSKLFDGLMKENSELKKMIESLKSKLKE", "sequence of UniProt P0A9W0 (whole entry, looked up)": "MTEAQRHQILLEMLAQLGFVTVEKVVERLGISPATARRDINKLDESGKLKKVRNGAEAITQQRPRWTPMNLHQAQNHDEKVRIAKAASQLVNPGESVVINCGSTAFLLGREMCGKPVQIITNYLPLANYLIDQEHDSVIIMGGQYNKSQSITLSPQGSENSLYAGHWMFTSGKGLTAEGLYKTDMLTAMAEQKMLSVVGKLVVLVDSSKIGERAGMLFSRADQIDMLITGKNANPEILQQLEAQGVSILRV", "sequence of UniProt P0ACL9 (whole entry, looked up)": "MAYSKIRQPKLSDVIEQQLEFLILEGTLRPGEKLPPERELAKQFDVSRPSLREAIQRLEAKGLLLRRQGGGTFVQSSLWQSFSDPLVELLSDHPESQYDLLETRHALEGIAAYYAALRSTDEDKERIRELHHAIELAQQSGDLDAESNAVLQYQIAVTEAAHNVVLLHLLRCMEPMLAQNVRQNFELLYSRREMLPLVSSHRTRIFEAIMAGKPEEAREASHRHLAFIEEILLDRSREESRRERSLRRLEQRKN", "sequence of UniProt P0AFB8 (whole entry, looked up)": "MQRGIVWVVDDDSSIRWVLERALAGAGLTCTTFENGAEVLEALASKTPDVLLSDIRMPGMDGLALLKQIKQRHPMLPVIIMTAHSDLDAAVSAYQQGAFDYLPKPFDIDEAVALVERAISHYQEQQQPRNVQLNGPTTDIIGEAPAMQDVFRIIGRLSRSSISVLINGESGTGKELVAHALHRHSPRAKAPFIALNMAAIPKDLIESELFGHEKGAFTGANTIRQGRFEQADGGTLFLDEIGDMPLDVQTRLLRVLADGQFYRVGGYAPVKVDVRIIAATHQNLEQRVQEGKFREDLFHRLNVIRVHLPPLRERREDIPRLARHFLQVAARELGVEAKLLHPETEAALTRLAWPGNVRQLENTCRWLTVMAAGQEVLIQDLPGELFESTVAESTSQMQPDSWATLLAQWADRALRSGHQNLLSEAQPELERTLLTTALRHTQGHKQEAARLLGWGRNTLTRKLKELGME", "sequence of UniProt Q13569 (whole entry, looked up)": "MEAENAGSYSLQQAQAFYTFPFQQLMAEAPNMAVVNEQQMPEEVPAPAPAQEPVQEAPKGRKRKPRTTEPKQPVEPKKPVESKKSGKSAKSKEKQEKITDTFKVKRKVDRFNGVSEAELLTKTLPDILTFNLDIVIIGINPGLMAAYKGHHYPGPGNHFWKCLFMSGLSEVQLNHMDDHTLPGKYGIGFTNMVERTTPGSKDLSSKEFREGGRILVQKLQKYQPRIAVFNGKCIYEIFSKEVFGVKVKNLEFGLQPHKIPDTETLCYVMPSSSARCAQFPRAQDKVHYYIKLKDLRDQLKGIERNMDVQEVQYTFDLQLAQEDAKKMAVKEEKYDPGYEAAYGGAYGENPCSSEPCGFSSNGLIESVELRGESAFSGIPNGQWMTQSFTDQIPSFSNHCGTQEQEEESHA", "sequence of UniProt Q15020 (whole entry, looked up)": "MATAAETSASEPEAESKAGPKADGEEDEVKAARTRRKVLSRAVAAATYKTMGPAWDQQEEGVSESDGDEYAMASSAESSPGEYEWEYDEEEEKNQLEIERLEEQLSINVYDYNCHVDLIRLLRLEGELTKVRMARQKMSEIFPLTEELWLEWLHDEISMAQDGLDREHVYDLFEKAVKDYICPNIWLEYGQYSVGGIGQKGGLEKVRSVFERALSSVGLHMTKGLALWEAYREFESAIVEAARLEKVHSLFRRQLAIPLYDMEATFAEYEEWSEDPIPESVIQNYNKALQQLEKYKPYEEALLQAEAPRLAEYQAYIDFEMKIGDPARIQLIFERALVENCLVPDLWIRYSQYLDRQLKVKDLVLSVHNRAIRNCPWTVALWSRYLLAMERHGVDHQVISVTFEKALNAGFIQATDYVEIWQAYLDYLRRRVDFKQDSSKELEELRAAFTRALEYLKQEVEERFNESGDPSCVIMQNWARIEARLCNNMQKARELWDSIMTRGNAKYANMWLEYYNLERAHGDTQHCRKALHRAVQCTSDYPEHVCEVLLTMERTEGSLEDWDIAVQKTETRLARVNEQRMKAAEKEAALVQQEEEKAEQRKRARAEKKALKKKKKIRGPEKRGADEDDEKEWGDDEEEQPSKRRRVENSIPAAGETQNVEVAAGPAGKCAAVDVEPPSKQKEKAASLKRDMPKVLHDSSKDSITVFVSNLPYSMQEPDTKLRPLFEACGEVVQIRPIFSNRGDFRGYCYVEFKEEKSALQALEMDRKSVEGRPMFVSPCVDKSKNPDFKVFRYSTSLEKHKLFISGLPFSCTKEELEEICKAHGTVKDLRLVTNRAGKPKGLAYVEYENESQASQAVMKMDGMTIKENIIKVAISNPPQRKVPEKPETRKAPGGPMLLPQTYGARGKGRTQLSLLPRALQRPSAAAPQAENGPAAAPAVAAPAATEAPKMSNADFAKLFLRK"}
{"Strand": "CAATACACTGTTATCAGTCACACGTGTCGAGCTACTCGTTCGGTTATCCGGCGGTATGAC (dsDNA)", "target": "CBF1", "technique": "MITOMI", "molecule type": "double-stranded DNA, one strand shown", "setting": "not purified", "Kd [µM]": "0.217 ± 0.013"}
{"Strand": "CUCUUUGGA (ssRNA)", "target": "U2AF2", "technique": "sequencing of bound RNA", "molecule type": "RNA", "setting": "motif only", "Kd [µM]": 3.23}
{"Strand": "ACAACAGACACACGAAGGTATAAAAATAAAATACATCAAGTCAATCGGTCC (dsDNA; 5'-amino-C6 primer)", "target": "SPT15 full length assumed", "technique": "array", "molecule type": "double-stranded DNA, one strand shown", "setting": "TBP alone", "Kd [µM]": "0.00509 ± 0.00045"}
{"Strand": "GUUUUACUU (ssRNA)", "target": "U2AF2", "technique": "sequencing of bound RNA", "molecule type": "RNA", "setting": "motif only", "Kd [µM]": 3.03}
{"Strand": "CAATACACTGTTATCAGAAACACGTGTCGAGCTACTCGTTCGGTTATCCGGCGGTATGAC (dsDNA)", "target": "PHO4", "technique": "MITOMI", "molecule type": "double-stranded DNA, one strand shown", "setting": "not purified", "Kd [µM]": "0.12 ± 0.003"}
{"Strand": "GGTAACTTAGCGTCTCGTTGTGATTAAGTTTGACGAGGAATGGAATGCGATGCGCATAACG (dsDNA)", "target": "ulaR full length assumed", "technique": "BLI", "molecule type": "double-stranded DNA, one strand shown", "Kd [µM]": 0.0185}
{"Strand": "DNA 1 GATTTAATATTAACTTATATATGTAAACTTATTTATCAATTCAATCGGTCC / DNA 2 GGACCGATTGACTTGATAAATAAGTTTACATATATAAGTTAATATTAAATC (dsDNA; 5'-amino-C6 primer)", "target": "SPT15 full length assumed", "technique": "array", "molecule type": "double-stranded DNA", "setting": "TBP alone", "Kd [µM]": "0.0108 ± 0.0019"}
{"Strand": "CAATACACTGTTATCAGCCACACGTGTCGAGCTACTCGTTCGGTTATCCGGCGGTATGAC (dsDNA)", "target": "PHO4", "technique": "MITOMI", "molecule type": "double-stranded DNA, one strand shown", "setting": "not purified", "Kd [µM]": "0.154 ± 0.004"}
{"Strand": "DNA 1 TGAGGATGTATATATCTGAUGCGCCGGTGGAGC / DNA 2 GCTCCACCGGCGCGTACGATATATACATCCTCA (dsDNA; blunt, G-U mispair)", "target": "TDG 1-410 (Homo sapiens, UniProt Q13569)", "technique": "EMSA", "molecule type": "double-stranded DNA", "Kd [µM]": 0.032}
{"Strand": "CAATACACTGTTATCTGACACACGTGTCGAGCTACTCGTTCGGTTATCCGGCGGTATGAC (dsDNA)", "target": "CBF1", "technique": "MITOMI", "molecule type": "double-stranded DNA, one strand shown", "setting": "not purified", "Kd [µM]": "0.212 ± 0.013"}
{"Strand": "CGCACCTAATGACGCAATGACGGAATGACGTAATGACTCAATGACTGAATGACTTCTCCGGCGGTATGAC (dsDNA)", "target": "CIN5 full length assumed", "technique": "MITOMI", "molecule type": "double-stranded DNA, one strand shown", "setting": "not purified", "Kd [µM]": "0.9 ± 0.07"}
{"Strand": "CGCAAAAACAACUAAAUCAAAACCAA (ssRNA; unstructured)", "target": "MECP2 1-486 (Homo sapiens, UniProt P51608)", "technique": "fluorescence polarization", "molecule type": "RNA", "setting": "Hill coefficient 1.03", "Kd [µM]": "0.0393 ± 0.002"}
{"Strand": "CTCAGGAATTCCTATACAGTAATGTGGAGCTCAGTTCAAGTCAATCGGTCC (dsDNA; 5'-amino-C6 primer)", "target": "SUA7 full length assumed", "technique": "array", "molecule type": "double-stranded DNA, one strand shown", "setting": "TFIIB alone", "Kd [µM]": "0.00783 ± 0.00218"}
{"Strand": "CAATACACTGTTATCGGACACACGTGTCGAGCTACTCGTTCGGTTATCCGGCGGTATGAC (dsDNA)", "target": "CBF1", "technique": "MITOMI", "molecule type": "double-stranded DNA, one strand shown", "setting": "not purified", "Kd [µM]": "0.217 ± 0.012"}
{"Strand": "GGAAGTGACGTACGTCGTGCACACGTGGTCCGGCGTCAAGTCAATCGGTCC (dsDNA; 5'-amino-C6 primer)", "target": "SUA7 full length assumed", "technique": "array", "molecule type": "double-stranded DNA, one strand shown", "setting": "TFIIB alone", "Kd [µM]": "0.00165 ± 0.00059"}
{"Strand": "TTTGCGTGGGCTGTGGTGCTTT (ssDNA)", "target": "traI 309-858 Q317A (Escherichia coli, UniProt P14565)", "technique": "fluorescence titration", "molecule type": "single-stranded DNA", "Kd [µM]": "0.0109 ± 0.0017"}
{"Strand": "AAGAGGAGTTAAATTTTATACAGTATAATCATAATATTGCAGCAAGGTGGTTATAATTGAA (dsDNA)", "target": "ulaR full length assumed", "technique": "BLI", "molecule type": "double-stranded DNA, one strand shown", "Kd [µM]": 0.0575}
{"Strand": "CGCTTATAGAATTATATAATTATCCAATTATCGAATTATCTAATTATGCAATTATCTCCGGCGGTATGAC (dsDNA)", "target": "CIN5 full length assumed", "technique": "MITOMI", "molecule type": "double-stranded DNA, one strand shown", "setting": "not purified", "Kd [µM]": "0.45 ± 0.03"}
{"Strand": "AGCGTCACAGACATGAAGCTGGTCTGACCACTTGGCTTCGGCAAGTGGCTTAAGACAGGAA (dsDNA)", "target": "pdhR full length assumed (Escherichia coli, UniProt P0ACL9)", "technique": "BLI", "molecule type": "double-stranded DNA, one strand shown", "Kd [µM]": 0.0179}
{"Strand": "GAUAAAGAUCAUGACAUCGACUACAAGGACGACGACGACAAGGUUGUGGAGCUGAUCGAGAAGCACCACCACCACCACCACAAAGUGGUGAUGAACUAA (RNA; predicted 2-5 helices)", "target": "FMR1 KH domains (Homo sapiens, UniProt Q06787)", "technique": "fluorescence anisotropy", "setting": "estimated, very weak", "Kd [µM]": "> 30"}
{"Strand": "CTGAAGGGGGGGCTATAAAAGGGGATGGGGGCTCCTCAAGTCAATCGGTCC (dsDNA; 5'-amino-C6 primer)", "target": "SPT15 full length assumed", "technique": "array", "molecule type": "double-stranded DNA, one strand shown", "setting": "TBP alone", "Kd [µM]": "0.0007 ± 3e-05"}
{"Strand": "CAATACACTGTTATCATACACACGTGTCGAGCTACTCGTTCGGTTATCCGGCGGTATGAC (dsDNA)", "target": "PHO4", "technique": "MITOMI", "molecule type": "double-stranded DNA, one strand shown", "setting": "not purified", "Kd [µM]": "0.17 ± 0.005"}
{"Strand": "AUCUUUAGU (ssRNA)", "target": "U2AF2", "technique": "sequencing of bound RNA", "molecule type": "RNA", "setting": "motif only", "Kd [µM]": 7.64}
{"Strand": "CATTCGCAACCTATAAGTAAATCCAATGGAACTCATCATAAATGAGACTTTTACCTTATGA (dsDNA)", "target": "glnG full length assumed (Escherichia coli, UniProt P0AFB8)", "technique": "BLI", "molecule type": "double-stranded DNA, one strand shown", "Kd [µM]": 11.7}
{"Strand": "GGUUGUGUA (ssRNA)", "target": "U2AF2", "technique": "sequencing of bound RNA", "molecule type": "RNA", "setting": "motif only", "Kd [µM]": 4.97}
{"Strand": "GTTCCTGAATATAAAAGGGGGGGGCGGGGTGGGGGTCAAGTCAATCGGTCC (dsDNA; 5'-amino-C6 primer)", "target": "SPT15 full length assumed", "technique": "array", "molecule type": "double-stranded DNA, one strand shown", "setting": "TBP alone", "Kd [µM]": "0.00488 ± 0.00034"}
{"Strand": "CAATACACTGTTATCAGACACACGTGTCGGGCTACTCGTTCGGTTATCCGGCGGTATGAC (dsDNA)", "target": "PHO4", "technique": "MITOMI", "molecule type": "double-stranded DNA, one strand shown", "setting": "not purified", "Kd [µM]": "0.138 ± 0.004"}
{"Strand": "AUCUGAUUU (ssRNA)", "target": "U2AF2", "technique": "sequencing of bound RNA", "molecule type": "RNA", "setting": "motif only", "Kd [µM]": 3.58}
{"Strand": "TATCACAGAAAAAAAGAAAATATAATAAATTAGTATCAAGTCAATCGGTCC (dsDNA; 5'-amino-C6 primer)", "target": "T1, TOA1/TOA2 1-286; 1-122 (Saccharomyces cerevisiae)", "technique": "array", "molecule type": "double-stranded DNA, one strand shown", "setting": "TFIIA alone", "Kd [µM]": "0.0473 ± 0.0147"}
{"Strand": "AUUUUGGCU (ssRNA)", "target": "U2AF2", "technique": "sequencing of bound RNA", "molecule type": "RNA", "setting": "motif only", "Kd [µM]": 1.44}
{"Strand": "CTGAAGGGGGGGCTATAAAAGAAGGTGGGGGCTCCTCAAGTCAATCGGTCC (dsDNA; 5'-amino-C6 primer)", "target": "SUA7 full length assumed", "technique": "array", "molecule type": "double-stranded DNA, one strand shown", "setting": "TFIIB alone", "Kd [µM]": "0.00389 ± 0.00059"}
{"Strand": "ACUUUUCAG (ssRNA)", "target": "U2AF2", "technique": "sequencing of bound RNA", "molecule type": "RNA", "setting": "motif only", "Kd [µM]": 16.9}
{"Strand": "GGAACGAUACAGAGAAGAUUAG (ssRNA)", "target": "SART3 671-877 (Homo sapiens, UniProt Q15020)", "technique": "fluorescence polarization", "molecule type": "RNA", "setting": "NaCl 150 mM", "Kd [µM]": "0.188 ± 0.005"}
{"Strand": "CAATACACTGTTATCCGACACACGTGTCGAGCTACTCGTTCGGTTATCCGGCGGTATGAC (dsDNA)", "target": "CBF1", "technique": "MITOMI", "molecule type": "double-stranded DNA, one strand shown", "setting": "not purified", "Kd [µM]": "0.166 ± 0.008"}
{"Strand": "UUCUAAGCU (ssRNA)", "target": "U2AF2", "technique": "sequencing of bound RNA", "molecule type": "RNA", "setting": "motif only", "Kd [µM]": 2.47}
{"note": "Excerpt of the above:"}
{"Strand": "CAATACACTGTTATCATACACACGTGTCGAGCTACTCGTTCGGTTATCCGGCGGTATGAC (dsDNA)", "target": "PHO4", "technique": "MITOMI", "molecule type": "double-stranded DNA, one strand shown", "setting": "not purified", "Kd [µM]": "0.17 ± 0.005"}
{"Strand": "CGCTTATAGAATTATATAATTATCCAATTATCGAATTATCTAATTATGCAATTATCTCCGGCGGTATGAC (dsDNA)", "target": "CIN5 full length assumed", "technique": "MITOMI", "molecule type": "double-stranded DNA, one strand shown", "setting": "not purified", "Kd [µM]": "0.45 ± 0.03"}
{"Strand": "GUUUUACUU (ssRNA)", "target": "U2AF2", "technique": "sequencing of bound RNA", "molecule type": "RNA", "setting": "motif only", "Kd [µM]": 3.03}
